Measured values from different studies.
Each line is one published result; not all experiments were run side by side. Values joined by “and” are separate records of one study, mostly repeats; a detail may differ. ± marks the error that the study gave.
Chain of UniProt P10632 (whole entry, looked up): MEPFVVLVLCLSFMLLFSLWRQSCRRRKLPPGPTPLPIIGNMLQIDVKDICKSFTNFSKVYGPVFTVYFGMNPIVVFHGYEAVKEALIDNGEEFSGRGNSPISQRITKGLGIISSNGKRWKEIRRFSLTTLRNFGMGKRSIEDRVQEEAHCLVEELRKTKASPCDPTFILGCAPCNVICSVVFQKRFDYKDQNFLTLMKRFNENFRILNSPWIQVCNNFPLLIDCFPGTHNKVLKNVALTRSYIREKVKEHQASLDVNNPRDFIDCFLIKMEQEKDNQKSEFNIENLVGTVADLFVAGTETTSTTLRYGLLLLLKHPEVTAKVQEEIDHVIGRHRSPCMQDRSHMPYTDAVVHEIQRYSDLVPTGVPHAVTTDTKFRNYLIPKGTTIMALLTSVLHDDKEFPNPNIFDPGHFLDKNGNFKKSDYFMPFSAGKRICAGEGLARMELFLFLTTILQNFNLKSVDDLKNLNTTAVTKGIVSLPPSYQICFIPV

SMILES | tested on | assay | system | setting | how to read | quantity | value
CC(C)OCCOCc1ccc(OCC(O)CN(N=O)C(C)C)cc1 (stereo not shown) | Salmonella typhimurium | Ames test | TA1535 | 5 µg/plate, 30 % hamster S9 | baseline: solvent control | revertant fold increase | 1 fold
CC1CCc2c(sc(NC(=O)Cn3cnc([N+](=O)[O-])n3)c2C(N)=O)C1 (stereo not shown) | Trypanosoma cruzi | reporter mRNA translation, inhibitor, measured: capped polyadenylated Renilla luciferase mRNA | cell-free extract | concentration not given | baseline: control RNA | relative translation | 121%
COc1ccc2c(c1)C(C)(C)C(/C=C/C1=C(Oc3ccc(C(=O)NCCCCOc4cc(CN(Cc5ccccn5)Cc5ccccn5)cc(CN(Cc5ccccn5)Cc5ccccn5)c4)cc3)C(=C/C=C3/N(CCCCS(=O)(=O)[O-])c4ccc(OC)cc4C3(C)C)CCC1)=[N+]2CCCCS(=O)(=O)[O-].O=[N+]([O-])[O-].O=[N+]([O-])[O-].[99Tc+].[C-]#[O+].[C-]#[O+].[C-]#[O+].[Zn+2] | Staphylococcus aureus | – | BALB/c mice, myositis, large intestine and caecum | intravenous, 0.74 MBq, 12 h post-injection | – | tissue uptake | 52.5 %ID/g and 32.8 %ID/g and 33.5 %ID/g and 55.8 %ID/g
C[C@H](NP(=O)(O)OC[C@H]1O[C@@](C#N)(c2ccc3c(N)ncnn23)[C@H](O)[C@@H]1O)C(=O)O | primary human hepatocytes | measured: ATP | – | 4 h | – | CC50 | > 100 µM
O=C1NC2(CC2)COc2ncc(F)cc2[C@H]2COCCN2c2ccn3ncc1c3n2 | CHL | chromosomal aberration test | – | 20 µg/mL, 24 h, without S9 | – | polyploid cells | 1%
COCC1CN(C2CCN(c3cc(OC)c(Nc4ncc(Br)c(Nc5ccc6c(c5P(C)(C)=O)OCCO6)n4)cc3C)CC2)C1 | – | – | EGFR-mutant NSCLC patients, plasma | oral, 30 mg multiple doses, geometric mean | – | Cmax at steady state | 0.66 µg/mL
CN1CCCNC(=O)c2cccc(c2)C(=O)NCCCN(C)CCCNc2cccc3c2C(=O)c2cccc(c2C3=O)NCCC1 | SAS | cell growth or viability, CCK-8 | – | 50 nM, 48 h | – | viability | 94.7%
COc1cccc(OC)c1-c1cc(C(=O)NC2(C(=O)O)C3CC4CC(C3)CC2C4)nn1-c1ccc(C(=O)NCCNC(=O)[C@H](CCCCNC(=O)[C@H](CC(C)C)NC(=O)C2OC2C(=O)O)NC(=O)CN2CCN(CC(=O)[O-])CCN(CC(=O)[O-])CCN(CC(=O)[O-])CC2)cc1C(C)C.[177Lu+3] (mixture of isomers) | HT-29 tumour model | – | host not given, stomach | 72 h, tumour-bearing | – | tracer uptake | 0.08 %ID/g
CCCC[C@H](NC(C)=O)C(=O)N[C@@H](CO)C(=O)N[C@H](C(=O)N1CCC[C@H]1C(=O)N[C@]1(C)CCCCCCC=CCCC[C@@](C)(C(=O)N[C@@H](Cc2ccccc2)C(=O)N[C@@H](CCCCN)C(=O)N[C@@H](CCCNC(=N)N)C(=O)N[C@@H](CC(C)C)C(=O)N[C@@H](CCC(N)=O)C(N)=O)NC(=O)[C@H](CCCNC(=N)N)NC(=O)[C@H](CCCC)NC(=O)[C@H](CC(C)C)NC(=O)[C@H](CCCNC(=N)N)NC(=O)[C@H](CCCNC(=N)N)NC(=O)[C@H](CCCNC(=N)N)NC1=O)[C@@H](C)O | proteinase K | LC-MS | – | 25 µM, 123.0 min, pH 7.4 | – | remaining peptide | 80.7% and 76.2%
CCOC(=O)c1c(NC(=O)Cn2cnc([N+](=O)[O-])n2)sc2c1CCC(C)C2 (stereo not shown) | Trypanosoma cruzi | reporter mRNA translation, inhibitor, measured: capped polyadenylated Renilla luciferase mRNA | cell-free extract | concentration not given | baseline: control RNA | relative translation | 97.9%
COc1cccc(OC)c1-c1cc(C(=O)NC2(C(=O)O)C3CC4CC(C3)CC2C4)nn1-c1ccc(C(=O)N(C)CCOCCN(C)C(=O)[C@H](CCCCNC(=O)[C@H](CC(C)C)NC(=O)C2OC2C(=O)O)NC(=O)CN2CCN(CC(=O)[O-])CCN(CC(=O)[O-])CCN(CC(=O)[O-])CC2)cc1C(C)C.[177Lu+3] (mixture of isomers) | HT-29 tumour model | – | host not given, pancreas | 72 h, tumour-bearing | – | tracer uptake | 0.13 %ID/g
CNC(=O)C1CCCN(C(=O)C2CC3CCC2N3C(=O)[C@@H]2C[C@@H](O)CN2C(=O)NCc2cccc(Cl)c2F)C1 (mixture of isomers) | Cytochrome P450 2C8 (CYP2C8, Homo sapiens, UniProt P10632) | preincubation with NADPH | human | 0.206 µM | baseline: negative control | remaining activity | 58% and 73.2% and 102%
N#C[C@@H]1CC(F)(F)CN1C(=O)CNC(=O)c1ccnc2c(NC(=O)[C@H](CCCCNC(=O)CCOCCOCCOCCOCCOCCOCCNC(=O)CN3CCN(CC(=O)[O-])CCN(CC(=O)[O-])CCN(CC(=O)[O-])CC3)NC(=O)CCCc3ccc(I)cc3)cccc12.[177Lu+3] | U-87 MG tumour model | – | host not given, liver | 4 h, tumour-bearing | – | tracer uptake | 2.13 %ID/g
O=C(Nc1cnccc1-c1ccc([18F])nc1)c1ccnc(NC(=O)C2CC2)c1 | – | – | FVB/NJ mouse, both sexes, brain | intravenous, 3 min post-injection, with: P-gp inhibitor tariquidar 15 mg/kg iv | – | SUV | 0.25 ± 0.13
N#C[C@@H]1CC(F)(F)CN1C(=O)CNC(=O)c1ccnc2c(NC(=O)[C@@H](N)CCCCNC(=O)CCOCCOCCOCCOCCOCCOCCNC(=O)CN3CCN(CC(=O)[O-])CCN(CC(=O)[O-])CCN(CC(=O)[O-])CC3)cccc12.[177Lu+3] | U-87 MG tumour model | – | host not given, muscle | 24 h, tumour-bearing | – | tracer uptake | 0.04 %ID/g
CCN(CC)CC#CCNc1ccnc2cc(Cl)ccc12 | Salmonella typhimurium | mini-Ames test | TA100 | 500.0 µg/well, without S9 | – | revertants | 13 revertants/well and 23 revertants/well
CC(C)(O)c1ncc([S@](N)(=O)=NC(=O)Nc2c3c(cc4c2CCC4)CCC3)s1 | – | measured: Gastrointestinal disorders | healthy human volunteers | oral, 50 mg twice daily, 14 days, enteric-coated tablet | – | subjects with adverse events | 86%
N#C[C@@H]1CCCN1C(=O)CNC(=O)c1ccnc2ccc(OCCCN3CCN(C(=O)CCc4ccc5c(c4)CN4CCN6CC(=O)[O][68Ga-]([O]C(=O)C4)([O]5)[O]c4ccc(CCC(=O)N5CCN(CCCOc7ccc8nccc(C(=O)NCC(=O)N9CCC[C@H]9C#N)c8c7)CC5)cc4C6)CC3)cc12 | U-87 MG tumour model | – | host not given, liver | 1 h, tumour-bearing | – | tracer uptake | 3.69 %ID/g
O=C1C2CC3CC1CC(C(=O)N1CCN(c4ccc([N+](=O)[O-])c5ncccc45)CC1)(C3)C2 | Escherichia coli | Ames test | WP2 uvrA pKM101 | 0.02 µg/well, with S9 activation | – | revertant colony count | 25 colonies/well

Some of these lines once more:
SMILES | tested on | assay | system | setting | how to read | quantity | value
COc1cccc(OC)c1-c1cc(C(=O)NC2(C(=O)O)C3CC4CC(C3)CC2C4)nn1-c1ccc(C(=O)N(C)CCOCCN(C)C(=O)[C@H](CCCCNC(=O)[C@H](CC(C)C)NC(=O)C2OC2C(=O)O)NC(=O)CN2CCN(CC(=O)[O-])CCN(CC(=O)[O-])CCN(CC(=O)[O-])CC2)cc1C(C)C.[177Lu+3] (mixture of isomers) | HT-29 tumour model | – | host not given, pancreas | 72 h, tumour-bearing | – | tracer uptake | 0.13 %ID/g
